# Measured values of several laboratories.
# Compare with care: the assays were run in different laboratories.
# Organism: Staphylococcus aureus
Structure (SMILES),assay,system,setting,scale,endpoint,value
[Cl-].[Cl-].[Ru+2].c1ccc2nc3c4cccnc4c4ncccc4c3nc2c1.c1ccncc1.c1ccncc1.c1ccncc1.c1ccncc1,,,LED irradiation 470 nm,,MIC90,8 µM
CCc1ccccc1NC(=O)CSc1nc2ccccc2c(=O)n1-c1ccc(S(N)(=O)=O)cc1,"microbial growth, well diffusion",ATCC29213,"500 µg/mL, 24 h",,inhibition zone,18 mm
Oc1c(Br)cc(Br)c2nc3ccccc3nc12,Calgary Biofilm Device,MRSA 1707,biofilm,,MBEC,100 µM
CN(C)c1cc(CNCCC(C)(C)C)c(O)c2c1C[C@H]1C[C@H]3[C@H](N(C)C)C(O)=C(C(N)=O)C(=O)[C@@]3(O)C(O)=C1C2=O,,"RN4250, Tet K efflux",,,MIC,2 µg/mL
Oc1c(Br)cc(Br)c2nc3cc(C(F)(F)F)ccc3nc12,Calgary Biofilm Device,MRSA 1707,biofilm,,MBEC,6.25 µM
CC(C)=CCc1cc2c(cc1O)OCc1c-2oc2c(CC=C(C)C)c(O)ccc12,,ATCC 25923,concentration not given,,antibacterial activity,inactive
Cc1cccc([N+](=O)[O-])c1NC(=O)CSc1nc2ccccc2c(=O)n1-c1ccc(S(N)(=O)=O)cc1,"microbial growth, well diffusion",ATCC29213,"500 µg/mL, 24 h",,inhibition zone,28 mm
COc1cccc(C2Nc3ccccc3C3=[O+][Cu-2]4([Cl])[O]c5c(cccc5OC)C=[N+]4N32)c1O (centres unmarked),"respiratory activity, inhibitor, MTT",ATCC 29213,concentration not given,at least 70% inhibition,lowest effective concentration,0.25 × MIC
CN[C@H](CC(C)C)C(=O)N[C@H]1C(=O)N[C@@H](CC(N)=O)C(=O)N[C@H]2C(=O)N[C@H]3C(=O)N[C@H](C(=O)N[C@H](C(=O)O)c4cc(O)cc(O)c4-c4cc3ccc4O)[C@H](O)c3ccc(c(Cl)c3)Oc3cc2cc(c3O[C@@H]2O[C@H](CO)[C@@H](O)[C@H](O)[C@H]2O[C@H]2C[C@](C)(NCc3ccc(C(=O)OCCCCCCN(Cc4ccccn4)Cc4ccccn4)cc3)[C@H](O)[C@H](C)O2)Oc2ccc(cc2Cl)[C@H]1O,,MRSA,"with: N,N'-diacetyl-Lys-D-Ala-D-Ala 500 µM",baseline: with over without antagonist,MIC ratio,2 fold
CC[C@H](C)[C@H](NC(=O)[C@H](CCCCN)NC(=O)[C@H](CC(N)=O)NC(=O)[C@H](Cc1c[nH]c2ccccc12)NC(=O)[C@H](Cc1ccccc1)NC(=O)[C@H](CCCCN)NC(=O)[C@H](CCCNC(=N)N)NC(=O)[C@H](CC(C)C)NC(=O)[C@H](Cc1c[nH]c2ccccc12)NC(=O)[C@H](CCCCN)NC(=O)[C@H](CCCNC(=N)N)NC(=O)[C@H](CC(C)C)NC(=O)CNC(C)=O)C(=O)N[C@@H](CCCCN)C(=O)N[C@@H](CCCNC(=N)N)C(N)=O,,,"12 h, with: plasma pretreatment",baseline: MIC without plasma pretreatment,MIC fold increase,16 fold
CCCCCCCCCCCCCC(=O)N[C@H]1C(=O)N[C@@H](CN)C(=O)N[C@@H](CO)C(=O)N[C@@H](Cc2ccc(O)cc2)C(=O)O[C@H]1C,,SH1000,"concentration not given, 18 h, 30 °C, with: other lipids or menaquinone-4",,antibacterial activity,no effect

# Some of these lines once more:
Structure (SMILES),assay,system,setting,scale,endpoint,value
COc1cccc(C2Nc3ccccc3C3=[O+][Cu-2]4([Cl])[O]c5c(cccc5OC)C=[N+]4N32)c1O (centres unmarked),"respiratory activity, inhibitor, MTT",ATCC 29213,concentration not given,at least 70% inhibition,lowest effective concentration,0.25 × MIC
